Assay results gathered from unrelated publications.
Compare with care: the assays were run in different laboratories. ± marks the error that the study gave.

SMILES	assay	system	conditions	how to read	endpoint	result
COc1ccc(-c2c(-c3ccc(C#N)c(F)c3)nc(N3CCC(N)CC3)n(C)c2=O)cc1F	measured: maculo-papular rash	neuroendocrine neoplasm patients	oral, 60 mg, dose expansion		grade 3-4 TRAE incidence	0%
COc1ncccc1-c1cnn2ccc(N3CCN(C(=O)OC(C)C)CC3)nc12		rat, STZ model, plasma	oral, 3 mg/kg, 240 min		free drug concentration	8.3 nM
CN(C)CCc1c[nH]c2ccc(N=Nc3ccccc3)cc12	light irradiation	solution	with: light 385 nm		cis isomer at photostationary state	86%
COc1ccc2nc3cc(Cl)ccc3c(Nc3cc(CN4CCCC4)c(O)c(CN4CCCC4)c3)c2n1		mouse, blood	intraperitoneal, 28 mg/kg		AST activity	49.2 U/L
CCN1[C@@H](C(=O)NC23CCC(C(=O)O)(CC2)CC3)[C@H](c2cccc(Cl)c2F)[C@]2(C(=O)Nc3cc(Cl)ccc32)C12CCCCC2		patients with advanced solid tumours	oral, all doses		Fatigue incidence	14.3%
CO[C@H]1C[C@@H]2CC[C@@H](C)[C@@](O)(O2)C(=O)C(=O)N2CCCC[C@H]2C(=O)O[C@H]([C@H](C)C[C@@H]2CC[C@@H](OC(=O)NCCOCCOCCOCCOCCOCCOCCOCCOCCC(=O)N3CCc4cc(Cn5nc(-c6ccc7oc(N)nc7c6)c6c(N)ncnc65)ccc4C3)[C@H](OC)C2)C[C@@H](O)[C@H](C)/C=C(\C)[C@@H](O)[C@@H](OC)C(=O)[C@H](C)C[C@H](C)/C=C/C=C/C=C/1C	phase 1 dose escalation, measured: fatigue	advanced solid tumour patients	intravenous, 8 mg weekly, grade ≥3		dose-reducing adverse events	0%
NCCCC[C@@H]1NC(=O)[C@@H](Cc2c[nH]c3ccccc23)NC(=O)[C@H](c2ccccc2)NC(=O)[C@@H]2C[C@@H](OC(=O)NCCN)CN2C(=O)[C@H](Cc2ccccc2)NC(=O)[C@H](Cc2ccc(OCc3ccccc3)cc2)NC1=O		healthy human volunteers	1950 µg twice daily		subjects with injection-site swelling	7%
Nc1ncnc2c1ncn2[C@@H]1O[C@@H]2COP(=O)([S-])O[C@@H]3[C@H](O)[C@@H](COP([O-])(=S)O[C@H]2[C@H]1O)O[C@H]3n1cnc2c(N)ncnc21.[Na+].[Na+] (some centres unmarked)		non-tumor-bearing mice, serum	intravenous, 1 mg/kg, toxicity study		glucose	10 ± 1.32 mmol/L
CC(C)CC(=O)OC[C@H]1O[C@@](C#N)(c2ccc3c(N)ncnn23)[C@H](O)[C@@H]1O	plasma protein binding	dog plasma	90 µM		bound fraction	0.746
C=C(CN(C(=O)c1c(C(F)F)nn(C)c1F)C1CC1)c1ccc(Cl)cc1Cl	static acute toxicity test	zebrafish (Brachydanio rerio)	1.00 mg a.i./L, 24 h		mortality	10%
COc1ccc2c(c1)CN(C(=O)CCN1CCC(Cc3ccccc3)CC1)CC[S@@+]2[O-]		female beagle dogs, chronic AV block	intravenous, 3 mg/kg, 4 h		QTcF	284 ± 9 ms
CCN1CCN(Cc2ccc(Nc3ncc(F)c(-c4cc(F)c5nc6n(c5c4)[C@H](C)CCC6)n3)nc2)CC1		advanced solid tumour patients	dose not given, Phase Ia monotherapy		Hematuria incidence, any grade	37.5%
COc1cc2c(Oc3ccc4[nH]c(C)cc4c3F)ccnc2cc1OCC1(N)CC1		paediatric recurrent refractory sarcoma	12 mg		grade 1 or 2 Vomiting	18.2%
CCNCCCNC/C=C\CNCCCNCC		human, advanced solid tumours	intravenous, dose not given	reference: patients	serious TEAE, dyspnoea	15.2%

Repeated from above:
SMILES	assay	system	conditions	how to read	endpoint	result
NCCCC[C@@H]1NC(=O)[C@@H](Cc2c[nH]c3ccccc23)NC(=O)[C@H](c2ccccc2)NC(=O)[C@@H]2C[C@@H](OC(=O)NCCN)CN2C(=O)[C@H](Cc2ccccc2)NC(=O)[C@H](Cc2ccc(OCc3ccccc3)cc2)NC1=O		healthy human volunteers	1950 µg twice daily		subjects with injection-site swelling	7%
